Measured values from different studies.
± marks the error that the study gave.
Nuclear receptor subfamily 2 group C member 2 ligand-binding domain: Nuclear receptor subfamily 2 group C member 2, ligand-binding domain (Homo sapiens, UniProt P49116)
Chain of UniProt P49116 (whole entry, looked up): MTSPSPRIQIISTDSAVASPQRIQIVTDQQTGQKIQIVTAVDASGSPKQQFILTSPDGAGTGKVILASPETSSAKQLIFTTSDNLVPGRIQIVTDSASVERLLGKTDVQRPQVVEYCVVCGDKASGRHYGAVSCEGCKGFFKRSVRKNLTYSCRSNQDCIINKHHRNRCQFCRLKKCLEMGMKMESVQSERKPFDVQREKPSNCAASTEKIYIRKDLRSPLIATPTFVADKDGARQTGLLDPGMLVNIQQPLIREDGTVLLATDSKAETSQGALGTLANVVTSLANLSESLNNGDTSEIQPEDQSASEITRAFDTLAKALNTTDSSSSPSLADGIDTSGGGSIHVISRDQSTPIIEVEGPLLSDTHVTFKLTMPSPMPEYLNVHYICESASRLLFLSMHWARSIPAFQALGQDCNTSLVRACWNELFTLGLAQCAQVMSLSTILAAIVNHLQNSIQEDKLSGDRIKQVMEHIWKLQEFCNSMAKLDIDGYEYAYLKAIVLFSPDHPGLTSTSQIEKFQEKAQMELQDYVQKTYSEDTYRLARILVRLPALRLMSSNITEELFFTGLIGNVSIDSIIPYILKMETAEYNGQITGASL
Chain of UniProt P61981 (whole entry, looked up): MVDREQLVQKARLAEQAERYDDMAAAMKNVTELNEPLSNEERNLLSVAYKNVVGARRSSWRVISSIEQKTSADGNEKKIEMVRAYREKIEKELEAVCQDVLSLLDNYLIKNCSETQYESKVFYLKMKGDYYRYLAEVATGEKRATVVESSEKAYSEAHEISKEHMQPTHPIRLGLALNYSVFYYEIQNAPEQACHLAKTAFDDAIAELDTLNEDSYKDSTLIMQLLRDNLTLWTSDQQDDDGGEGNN
Chain of UniProt Q04206 (whole entry, looked up): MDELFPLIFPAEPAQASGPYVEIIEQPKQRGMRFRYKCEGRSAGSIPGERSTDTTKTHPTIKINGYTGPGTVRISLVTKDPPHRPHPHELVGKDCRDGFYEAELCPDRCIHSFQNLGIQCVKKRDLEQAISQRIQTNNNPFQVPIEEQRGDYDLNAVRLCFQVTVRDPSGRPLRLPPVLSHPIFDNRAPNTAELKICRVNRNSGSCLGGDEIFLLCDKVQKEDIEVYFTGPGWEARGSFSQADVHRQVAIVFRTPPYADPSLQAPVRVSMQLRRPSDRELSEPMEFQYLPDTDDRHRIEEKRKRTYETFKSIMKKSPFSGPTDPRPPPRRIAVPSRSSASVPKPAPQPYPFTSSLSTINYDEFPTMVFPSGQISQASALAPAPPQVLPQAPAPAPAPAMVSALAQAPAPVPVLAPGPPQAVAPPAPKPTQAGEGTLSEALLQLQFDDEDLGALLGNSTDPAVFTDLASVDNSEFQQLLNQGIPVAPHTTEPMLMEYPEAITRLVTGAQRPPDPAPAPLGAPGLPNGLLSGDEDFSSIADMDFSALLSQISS

SMILES | target or system | test | test system | setting | scale | quantity | value
Cn1cc(-c2ccc(-c3cncc(Cl)c3N3CCC4(CCNC4=O)CC3)cc2)cn1 | COLO 205 | microarray, item: FOSB | – | concentration not given, 2 h | relative to: untreated cells | fold change in expression | 1.4
CC(C)NCC(O)c1ccc(O)c(O)c1 (stereo not shown) | mouse ventricular cardiomyocytes | – | – | dose not given, 0.011 s | – | sarcomere length | 1.8 µm
C[C@]12O[C@H](C[C@]1(O)CO)n1c3ccccc3c3c4c(c5c6ccccc6n2c5c31)CNC4=O | OCI-Ly1 | – | – | 0.1 µM, 120 h | – | viability | 17.9%
CC/C(=N\NC(=O)NCc1cccc(O)c1)c1ccc(O)c(C)c1O | SK-OV-3 | Western blot, item: TAZ | – | 10 µM, 3 h, 2D culture, unit not given | relative to: β-actin | protein level | 1.57 ± 0.81
COc1cc2nc(N3CCCN(C)CC3)nc(NC3CCN(Cc4ccccc4)CC3)c2cc1OC | OCI-Ly1 | – | – | 1 µM, 120 h | – | viability | 152%
O=C(/C=C/C=C/C=C/C1CCCCC1)NC1=C[C@@](O)(/C=C/C=C/C=C/C(=O)NC2=C(O)CCC2=O)[C@@H]2O[C@@H]2C1=O | IGR-1 | cell growth, CellTiter-Glo | – | 78 h | – | GI50 | 12.9 µM
CCN(CCO)CCCC(C)Nc1ccnc2cc(Cl)ccc12 (stereo not shown) | human PBMC | qRT-PCR, item: RSAD2 mRNA | – | 1000 nM, together with: ssRNA | – | inhibition | 17 ± 27%
Cc1ccc(NC(=O)CCCCCC(=O)Nc2ccccc2N)cc1 | OCI-Ly1 | – | – | 0.1 µM, 120 h | – | viability | 196%
Cc1cc(O)c2c(c1)C(=O)c1cccc(O)c1C2=O | HepaRG co-cultured with HK-2 | MTT | – | 16.67 µM, 24 h | relative to: untreated control | cell viability | 90.8 ± 9.79%
CC(C)NCCCn1c(Sc2cc3c(cc2I)OCO3)nc2c(N)ncnc21 | iPSC-derived cardiomyocytes | concentration-response fit | – | concentration not given | relative to: vehicle | fitted bottom MyBP-C level | 18.6%
C#CCCC1(CCC(=O)N2[C@@H](c3cccc(F)c3)c3[nH]c4ccccc4c3C[C@H]2C(=O)OC)N=N1 | HeLa stably expressing GFP-LC3 | autophagy | – | concentration not given, 4 h | – | LC3 puncta | decreased
O=C(O)CCCc1ccccc1 | OCI-Ly1 | – | – | 1 µM, 120 h | – | viability | 154%
Cc1nc(Nc2ncc(C(=O)Nc3c(C)cccc3Cl)s2)cc(N2CC[C@H](O)C2)n1 | NAMALWA | cell proliferation, CellTiter-Glo | – | 10 µM, 72 h | – | inhibition | 59%
CN(C)c1ccc2nc3ccc(=[N+](C)C)cc-3sc2c1 | mouse CA1 pyramidal neurons | patch clamp | hippocampal slices | 10 µM | – | mIPSC charge transfer | decreased
CN(CCOc1ccc(NS(C)(=O)=O)cc1)CCc1ccc(NS(C)(=O)=O)cc1 | Nuclear receptor subfamily 2 group C member 2 ligand-binding domain | SPR imaging | – | – | – | Kd | 0.0772 nM
O=C1N(Cc2cccc3ccccc23)c2ccccc2C12NN=C(c1ccccc1)S2 (stereo not shown) | NSCLC and TNBC cells | Western blot, item: cyclin B1 | – | concentration not given | – | protein level | decreased
O=Cc1ccc([N+](=O)[O-])c(N2CCOCC2)c1 | YWHAG/RELA, phospho-Ser45 p65 peptide (Homo sapiens, UniProt P61981+Q04206) | ternary complex formation, stabilizer, fluorescence anisotropy | – | – | – | EC50 | > 1000 µM
CC(=O)Nc1cccc(-n2c(=O)n(C3CC3)c(=O)c3c(Nc4ccc(I)cc4F)n(C)c(=O)c(C)c32)c1 | COLO 205 (BRAF V600E) | – | – | 6.25 nM | relative to: DMSO | fractional effect | 89%
CC(C)n1c(/C=C/C(O)CC(O)CC(=O)O)c(-c2ccc(F)cc2)c2ccccc21 (stereo not shown) | COS-7 | – | – | 6 µM, 24 h, 0.1% DMSO, unit not given | relative to: vehicle control | confluence | 0.83 ± 0.03
CNCc1ccc(-c2[nH]c3cc(F)cc4c3c2CCNC4=O)cc1 | OCI-Ly1 | – | – | 0.1 µM, 120 h | – | viability | 174%
COc1cnc(NS(=O)(=O)c2ccc(N)cc2)nc1 | Nuclear receptor subfamily 2 group C member 2 ligand-binding domain | SPR imaging | – | – | – | Kd | 0.0111 nM
Cc1cc(Nc2nn(-c3ccccc3)c(=O)c3ccccc23)n[nH]1 | OCI-Ly1 | – | – | 0.5 µM, 120 h | – | viability | 104%
CCCCc1nc(Cl)c(CO)n1Cc1ccc(-c2ccccc2-c2nn[nH]n2)cc1 | human PBMC | RNA-seq, item: CD36 mRNA | – | 10 µg/mL, 24 h | relative to: untreated control | log2 fold change | -1.83
O=c1oc2c(O)c(O)cc3c(=O)oc4c(O)c(O)cc1c4c23 | OCI-Ly1 | – | – | 0.1 µM, 120 h | – | viability | 94.5%
C=C1C(=O)O[C@@H]2C[C@@]3(C)CCC[C@H](C)C3=C[C@H]12 | iPSC-derived cardiomyocytes | concentration-response curve, item: MyBP-C protein level | – | – | – | EC50 | > 50 µM
O=C(COc1cccc2c1C(=O)N(C1CCC(=O)NC1=O)C2=O)NCCOCCOCCNS(=O)(=O)Nc1cccc(-c2cn3cc(C(=O)NC4CCC4)ccc3n2)c1 (stereo not shown) | MV4-11 | TMT proteomics, item: PGLS protein | – | 10 µM, 16 h | relative to: DMSO | log2 fold change | -0.063
Cc1nc2c(Cl)cccn2c1NC(=O)c1ccc(-c2ccc(N(C)C)cc2)o1 | COS-7 | – | – | 10 µM, 24 h, 0.1% DMSO, unit not given | relative to: vehicle control | confluence | 1.09 ± 0.07
CCn1cc(-c2cc(Cn3ccnc3)cc3c2CCN([C@H](c2cc(OC)ccn2)C2CC2)C3=O)c(C(F)(F)F)n1 | MV4-11 | cell growth, inhibitor | – | 120 h | – | EC50 | 0.0326 µM

Repeated from above:
SMILES | target or system | test | test system | setting | scale | quantity | value
O=Cc1ccc([N+](=O)[O-])c(N2CCOCC2)c1 | YWHAG/RELA, phospho-Ser45 p65 peptide (Homo sapiens, UniProt P61981+Q04206) | ternary complex formation, stabilizer, fluorescence anisotropy | – | – | – | EC50 | > 1000 µM
CC(=O)Nc1cccc(-n2c(=O)n(C3CC3)c(=O)c3c(Nc4ccc(I)cc4F)n(C)c(=O)c(C)c32)c1 | COLO 205 (BRAF V600E) | – | – | 6.25 nM | relative to: DMSO | fractional effect | 89%
